Measured values pooled from the literature.
A part holds a random share of what one study measured.

Series 1
Target: Interferon regulatory factor 5, full length, phosphomimetic (IRF5, Homo sapiens, UniProt Q13568-2, residues 1-514, K96S/S451D/S453D/S456D/S462D)
Technique: protein-binding microarray
Molecule type: double-stranded DNA, one strand shown
Matrix: in vitro
Concentration: 250 nM
Setting: 60-bp whole probe
Added: salmon DNA 0.4 mg/ml
Reference: random background probes
Reading: higher = stronger binding
Strand | log fluorescence [z-score]
GCCTAGCACCAGAATCCAGCTCAGGTTGTGTGCTAGGTCTTGATTCGCTTGACGCTGCTG | -0.21
GCCTAGCACGACGATATCAGACTGGAGAAGTGCTAGGTCTTGATTCGCTTGACGCTGCTG | 0.426
GCCTAGCACGACGGTTTCGGTTATCGGGACGTGCTAGTCTTGATTCGCTTGACGCTGCTG | 10.3

Other studies, line by line
SALL4 full length isoform A: Sal-like protein 4, full length isoform A (SALL4, Homo sapiens, UniProt Q9UJQ4, residues 1-1053)
UniProt Q9UJQ4, sequence (whole entry, looked up): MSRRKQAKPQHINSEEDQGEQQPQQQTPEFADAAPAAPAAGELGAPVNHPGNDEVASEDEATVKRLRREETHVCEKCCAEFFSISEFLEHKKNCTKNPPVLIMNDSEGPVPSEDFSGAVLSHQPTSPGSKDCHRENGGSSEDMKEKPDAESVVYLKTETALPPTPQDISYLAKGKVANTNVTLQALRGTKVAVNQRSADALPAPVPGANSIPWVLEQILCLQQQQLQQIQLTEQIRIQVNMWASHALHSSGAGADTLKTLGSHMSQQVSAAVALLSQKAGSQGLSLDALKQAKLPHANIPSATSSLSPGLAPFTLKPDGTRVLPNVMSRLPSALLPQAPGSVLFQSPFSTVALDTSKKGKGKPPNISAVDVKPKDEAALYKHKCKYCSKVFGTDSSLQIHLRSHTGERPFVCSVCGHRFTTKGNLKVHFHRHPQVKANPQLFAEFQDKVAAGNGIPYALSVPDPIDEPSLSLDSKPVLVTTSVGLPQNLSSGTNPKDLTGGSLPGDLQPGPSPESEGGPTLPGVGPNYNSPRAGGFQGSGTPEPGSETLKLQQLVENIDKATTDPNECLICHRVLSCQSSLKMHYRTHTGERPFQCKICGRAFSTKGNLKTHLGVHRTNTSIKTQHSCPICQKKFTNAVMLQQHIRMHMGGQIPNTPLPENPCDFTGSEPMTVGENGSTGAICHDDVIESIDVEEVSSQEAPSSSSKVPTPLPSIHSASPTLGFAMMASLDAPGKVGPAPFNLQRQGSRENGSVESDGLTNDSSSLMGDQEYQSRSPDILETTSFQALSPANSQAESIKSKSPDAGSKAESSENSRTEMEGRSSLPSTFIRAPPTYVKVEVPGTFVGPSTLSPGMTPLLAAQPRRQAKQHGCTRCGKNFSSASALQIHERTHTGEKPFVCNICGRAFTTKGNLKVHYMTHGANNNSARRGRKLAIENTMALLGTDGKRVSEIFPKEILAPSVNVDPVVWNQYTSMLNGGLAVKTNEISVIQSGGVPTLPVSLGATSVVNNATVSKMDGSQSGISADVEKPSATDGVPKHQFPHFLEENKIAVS
Pou5f1 POU domain: POU domain, class 5, transcription factor 1, POU domain (Pou5f1, Mus musculus, UniProt P20263, residues 131-289)
UniProt P20263, sequence (131-289, looked up): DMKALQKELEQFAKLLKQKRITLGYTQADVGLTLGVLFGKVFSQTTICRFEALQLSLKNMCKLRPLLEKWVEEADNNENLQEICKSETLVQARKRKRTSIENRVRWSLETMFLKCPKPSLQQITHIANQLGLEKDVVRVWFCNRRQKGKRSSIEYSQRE
Substance | target | test | test system | conditions | scale | measurement | result
ATAGAAAG | SALL4 full length isoform A | universal PBM | double-stranded DNA, one strand shown, in vitro | 600 nM, 8-mer, flanks averaged, mean of replicates | higher = stronger binding | E-score | 0.156
PhoQ, residues 284 288 289 292 302 303 TGYLSA | PhoP, residues 12 14 15 18 19 LHATL (Escherichia coli, UniProt P23836) | Sort-seq, item: YFP reporter | E. coli | PhoQ-PhoP variant library, added: 10 µM Mg2+ | reference: high Mg2+ state, higher = stronger signaling | fold induction | 0.78
GACCTAGC | SALL4 full length isoform A | universal PBM | double-stranded DNA, one strand shown, in vitro | 600 nM, 8-mer, flanks averaged, mean of replicates | higher = stronger binding | E-score | -0.0786
GAGTCGTCTCGTCAGCACATGTCAATCCGTAGAGCACTCAGGTC | Pou5f1 POU domain | Spec-seq | double-stranded DNA, one strand shown, in vitro | not given, whole probe, mean of replicates | reference: not given, lower = stronger binding | relative binding energy | 0.176 ln ratio
CTCAAATC | SALL4 full length isoform A | universal PBM | double-stranded DNA, one strand shown, in vitro | 600 nM, 8-mer, flanks averaged, mean of replicates | higher = stronger binding | E-score | 0.0394
GAGTCGTCTCGTCAGCACATCTTTATCCGTAGAGCACTCAGGTC | Pou5f1 POU domain | Spec-seq | double-stranded DNA, one strand shown, in vitro | not given, whole probe, mean of replicates | reference: not given, lower = stronger binding | relative binding energy | 0.403 ln ratio

A few entries again (other studies, line by line):
Substance | target | test | test system | conditions | scale | measurement | result
GAGTCGTCTCGTCAGCACATCTTTATCCGTAGAGCACTCAGGTC | Pou5f1 POU domain | Spec-seq | double-stranded DNA, one strand shown, in vitro | not given, whole probe, mean of replicates | reference: not given, lower = stronger binding | relative binding energy | 0.403 ln ratio
